Measured values pooled from the literature.
Lines come from different studies, so protocols differ.
Organism: Escherichia coli

SMILES	assay	test system	setting	MIC
CC[C@H]1OC(=O)[C@H](C)[C@@H](OC(=O)Cc2ccc3c(c2)OCO3)[C@H](C)[C@@H](O[C@@H]2O[C@H](C)C[C@H](N(C)C)[C@H]2O)[C@](C)(OC)C[C@@H](C)C(=O)[C@H](C)[C@@H](O)[C@]1(C)O	–	tolC	–	2 µg/mL
CC[C@H](C)[C@H](NC(=O)[C@H](CCCNC(=N)N)NC(=O)[C@H](CC(=O)O)NC(=O)[C@H](CCCNC(=N)N)NC(=O)[C@H](CC(C)C)NC(=O)[C@H](CC(N)=O)NC(=O)[C@H](CCCNC(=N)N)NC(=O)[C@@H](N)Cc1ccccc1)C(=O)N[C@@H](CCCCN)C(=O)N[C@@H](CC(N)=O)C(=O)N[C@@H](CCCCN)C(=O)N[C@@H](Cc1ccccc1)C(=O)N[C@@H](CCC(=O)O)C(=O)N[C@@H](CC(N)=O)C(=O)N[C@@H](C)C(=O)N[C@@H](CC(C)C)C(=O)N[C@@H](CCCCN)C(=O)N[C@@H](CC(N)=O)C(=O)N[C@H](C(=O)N[C@H](C(=O)N[C@@H](CC(N)=O)C(=O)N[C@@H](CCCCN)C(=O)N[C@@H](CC(C)C)C(=O)N[C@@H](Cc1ccccc1)C(=O)N1CCC[C@H]1C(=O)O)[C@@H](C)CC)C(C)C	broth microdilution	ATCC 25922	16 h, 37 °C, cation-adjusted Mueller-Hinton broth	32 µg/mL
CC[C@H]1OC(=O)[C@H](C)[C@@H](OC(=O)Cc2cccc(Cl)c2)[C@H](C)[C@@H](O[C@@H]2O[C@H](C)C[C@H](N(C)C)[C@H]2O)[C@](C)(OC)C[C@@H](C)C(=O)[C@H](C)[C@@H](O)[C@]1(C)O	microbial growth	ATCC25922	–	> 32 µg/mL
C/C(=C\c1ccc(O)cc1)C(=O)Nc1ccc(C(=O)N[C@@H](Cc2c[nH]nn2)C(=O)Nc2ccc(C(=O)Nc3ccc(C(=O)Nc4ccc(C(=O)O)cc4)cc3)cc2)cc1	broth microdilution	ciprofloxacin-sensitive	–	0.063 µg/mL
CCCCCCCCCCCCCCCCCCn1cc(CN(CCC(=O)NCCN(CCC(=O)NCCN(CCC(=O)NCCN(C)C)CCC(=O)NCCN(C)C)CCC(=O)NCCN(CCC(=O)NCCN(C)C)CCC(=O)NCCN(C)C)CCC(=O)NCCN(CCC(=O)NCCN(CCC(=O)NCCN(C)C)CCC(=O)NCCN(C)C)CCC(=O)NCCN(CCC(=O)NCCN(C)C)CCC(=O)NCCN(C)C)nn1	microbial growth, broth dilution	MG1655	18 h	6 µg/mL
COc1ccc(O)c(/C=N/[C@@H]2CCCC[C@@H]2/N=C/c2c(O)ccc3ccc(OC)cc23)c1	microbial growth, broth dilution	–	clinical isolate	> 40 µM
CC1(C)[C@H](NC(=O)/C(=N\OC2(C(=O)O)CC2)c2nsc(N)n2)C(=O)N1OS(=O)(=O)O	agar dilution	16-1, ESBL-producing	–	0.5 µg/mL
Cn1nnnc1SCc1nn(C)c2nc(N)[nH]c(=O)c2c1=O	microbial growth, broth dilution	BW25113	18 h	25 µg/mL
COc1cc(C(=O)O)ccc1NC(=O)c1ccc(NC(=O)c2ccc(NC(=O)[C@H](Cc3c[nH]nn3)NC(=O)c3ccc(NC(=O)/C(C)=C/c4ccc(O)cc4)cc3)cc2)c(OC)c1O	broth microdilution	ciprofloxacin-resistant	–	0.5 µg/mL
CC[C@H]1OC(=O)[C@H](C)[C@@H](OC(=O)Cc2c(F)cccc2F)[C@H](C)[C@@H](O[C@@H]2O[C@H](C)C[C@H](N(C)C)[C@H]2O)[C@](C)(OC)C[C@@H](C)C(=O)[C@H](C)[C@@H](O)[C@]1(C)O	–	tolC	–	2 µg/mL
CCCCCC(=O)Oc1c(C)c(OC)c2c(/C=C/c3ccccc3)c(CCCC)c(=O)oc2c1C	microbial growth, broth dilution	ATCC25922	–	5000 µg/mL
COc1nc(C(=O)O)ccc1NC(=O)c1ccc(NC(=O)c2ccc(NC(=O)[C@H](Cc3c[nH]nn3)NC(=O)c3ccc(NC(=O)/C(C)=C/c4ccc(O)cc4)cc3)cc2)c(OC)c1O	broth microdilution	BW25113	–	0.5 µg/mL
COc1ccc2ccc(O)c(/C=N/[C@H]3CCCC[C@H]3/N=C/c3cc(C)ccc3O)c2c1	microbial growth, broth dilution	–	–	> 40 µM
Nc1nc2[nH]nc(CCC(=O)O)c(=O)c2c(=O)[nH]1	microbial growth, broth dilution	BW25113	18 h	> 100 µg/mL
COc1ccc(/N=N/C(=S)N2CCCC2)cc1	microbial growth, broth dilution	ATCC 8739, ATCC8739	24 h	> 50 µM
CC[C@H](C)[C@H](NC(=O)[C@@H](CCCNC(=N)N)NC(=O)[C@H](CCCNC(=N)N)NC(=O)[C@@H]1CCCN1C(=O)[C@@H]1CCCN1C(=O)[C@H](CCCNC(=N)N)NC(=O)[C@@H]1CCCN1C(=O)[C@H](CCCNC(=N)N)NC(=O)[C@@H]1CCCN1C(=O)[C@H](CCCNC(=N)N)NC(=O)[C@H](Cc1ccc(O)cc1)NC(=O)[C@@H]1CCCN1C(=O)[C@@H]1CCCN1C(=O)[C@H](CCCCN)NC(=O)[C@H](CC(=O)O)NC(=O)[C@@H](N)C(C)C)C(=O)N[C@@H](Cc1ccc(O)cc1)C(=O)N[C@@H](CC(N)=O)C(=O)N[C@H](CCCNC(=N)N)C(N)=O	broth microdilution	BW25113	18 h, 37 °C, 25% MHB2	8 µg/mL
CCCCCC[N+](C)(C)CCCCCCOc1cc(OCCCCCC[N+](C)(C)CCCCCC)cc(OCCCCCC[N+](C)(C)CCCCCC)c1.[Br-].[Br-].[Br-]	–	MC4100	–	1 µM
CCC(CC)c1cc(CCN2CCCN(S(=O)(=O)c3ccc(F)cc3)CC2)nc(-c2ccccn2)n1	microbial growth, broth dilution	ATCC25922	–	> 64 µg/mL

SMILES	assay	test system	setting	MIC
CCCCCC(=O)Oc1c(C)c(OC)c2c(c1C)OC(=O)[C@@H](CCCC)[C@]2(O)/C=C/c1ccccc1 (relative stereo)	microbial growth, broth dilution	ATCC25922	–	5000 µg/mL
CC[C@H]1OC(=O)[C@H](C)[C@@H](OC(=O)Cc2cccc([N+](=O)[O-])c2)[C@H](C)[C@@H](O[C@@H]2O[C@H](C)C[C@H](N(C)C)[C@H]2O)[C@](C)(OC)C[C@@H](C)C(=O)[C@H](C)[C@@H](O)[C@]1(C)O	–	lpxC	–	16 µg/mL
C=C[C@H]1CC1(NC(=O)C12CC(NC(=O)c3ccc(C#N)cc3)(C1)C2)C(=O)Nc1ccc(C(=O)Nc2ccc(C(=O)Nc3ccc(C(=O)O)cc3)c(O)c2OC(C)C)cc1 (some centres unmarked)	–	BW25113 ΔtolC	–	0.04 µg/mL
COc1cccc(OC)c1C(=O)N[C@@H]1C(=O)N2[C@@H]1SC(C)(C)[C@@H]2C(=O)O	microbial growth, broth dilution	25922	–	> 128 µM
O=[N+]([O-])c1cc(Cl)c2cccnc2c1O	microbial growth, broth dilution	ATCC35218	–	8 µg/mL
COc1c(NC(=O)c2ccc(NC(=O)c3ccc(NC(=O)[C@H](Cc4c[nH]nn4)NC(=O)c4ccc(NC(=O)/C(C)=C/c5ccc(O)cc5)cc4)cc3)c(OC)c2O)ccc(C(=O)O)c1O	microbial growth, broth dilution	–	–	0.016 µg/mL
CCCCCCCCCC[N+](C)(C)CCCCCCCCOc1cc(OCCCCCCCC[N+](C)(C)CCCCCCCCCC)cc(OCCCCCCCC[N+](C)(C)CCCCCCCCCC)c1.[Br-].[Br-].[Br-]	–	MC4100	–	8 µM
COc1cc(C(=O)Nc2ccc(C(=O)O)cc2)ccc1NC(=O)c1ccc(NC(=O)[C@H](Cc2c[nH]nn2)NC(=O)c2ccc(NC(=O)/C(C)=C/c3ccc(O)cc3)cc2)cc1	broth microdilution	DSM 1116	–	4 µg/mL
C[C@H](CS)C(=O)Nc1cccc(-c2nn[nH]n2)c1	broth microdilution	DH5α pET28-lacUV5 control	25 µM	> 64 µg/mL
CC(C)C[C@@H]1NC(=O)[C@@H](CC(C)C)NC(=O)[C@H](CCN)NC(=O)[C@@H](NC(=O)[C@H](CCN)NC(=O)[C@@H](NC(=O)CCOCCOCCOCCN=[N+]=[N-])[C@@H](C)O)CCNC(=O)[C@H]([C@@H](C)O)NC(=O)[C@H](CCN)NC(=O)[C@H](CCN)NC1=O	broth microdilution	ATCC 25922	18 to 20 h	128 µg/mL
CCCCCCCCCCCC[N+](C)(C)CCCCOc1cc(OCCCC[N+](C)(C)CCCCCCCCCCCC)cc(OCCCC[N+](C)(C)CCCCCCCCCCCC)c1.[Br-].[Br-].[Br-]	–	MC4100	–	4 µM
COc1ccc(/C=N/[C@@H]2CCCC[C@@H]2/N=C/c2c(O)ccc3ccc(OC)cc23)c(O)c1	microbial growth, broth dilution	–	clinical isolate	> 40 µM
CN[C@H](CC(C)C)C(=O)N[C@H]1C(=O)N[C@@H](CC(N)=O)C(=O)N[C@H]2C(=O)N[C@H]3C(=O)N[C@H](C(=O)N[C@H](C(=O)NCc4cn(CCCCC(=O)N[C@H](C(=O)N[C@@H](CCN)C(=O)N[C@H]5CCNC(=O)[C@H]([C@@H](C)O)NC(=O)[C@H](CCN)NC(=O)[C@H](CCN)NC(=O)[C@H](CC(C)C)NC(=O)[C@@H](CC(C)C)NC(=O)[C@H](CCN)NC5=O)[C@@H](C)O)nn4)c4cc(O)cc(O)c4-c4cc3ccc4O)[C@H](O)c3ccc(c(Cl)c3)Oc3cc2cc(c3O[C@@H]2O[C@H](CO)[C@@H](O)[C@H](O)[C@H]2O[C@H]2C[C@](C)(N)[C@H](O)[C@H](C)O2)Oc2ccc(cc2Cl)[C@H]1O	broth microdilution	ATCC 25922	18 to 20 h	16 µg/mL
COc1cc(C(=O)Nc2ccc(C(=O)O)c(O)c2)ccc1NC(=O)c1ccc(NC(=O)[C@H](Cc2c[nH]nn2)NC(=O)c2ccc(NC(=O)/C(C)=C/c3ccc(O)cc3)cc2)cc1	broth microdilution	ciprofloxacin-sensitive	–	0.25 µg/mL
C#CCNC(=O)C(C)(C)O/N=C(\C(=O)N[C@@H]1C(=O)N(S(=O)(=O)O)[C@H]1C)c1csc(N)n1	agar dilution	16-1 ESBL	–	1 µg/mL
CC[C@H]1OC(=O)[C@H](C)[C@@H](OC(=O)Cc2c(F)cc([N+](=O)[O-])cc2F)[C@H](C)[C@@H](O[C@@H]2O[C@H](C)C[C@H](N(C)C)[C@H]2O)[C@](C)(OC)C[C@@H](C)C(=O)[C@H](C)[C@@H](O)[C@]1(C)O	microbial growth	ATCC25922	–	> 32 µg/mL
COc1cc(C(=O)O)ccc1NC(=O)c1ccc(NC(=O)c2ccc(NC(=O)[C@H](Cc3c[nH]nn3)NC(=O)c3ccc(NC(=O)/C(C)=C/c4ccc(O)cc4)cc3)cc2)c(OC)c1	broth microdilution	DSM 1116	–	1 µg/mL
